Assay results from different studies.
Lines come from different studies, so protocols differ. Numbers after ± are the reported error.
Action: inhibitor
rep main protease: Replicase polyprotein 1ab, main protease (rep, Severe acute respiratory syndrome coronavirus 2, UniProt P0DTD1)
rep methyltransferase: Replicase polyprotein 1ab, methyltransferase (rep, Severe acute respiratory syndrome coronavirus 2, UniProt P0DTD1)
rep nsp13 helicase: Replicase polyprotein 1ab, nsp13 helicase (rep, Severe acute respiratory syndrome coronavirus 2, UniProt P0DTD1)
rep papain-like protease: Replicase polyprotein 1ab, papain-like protease (rep, Severe acute respiratory syndrome coronavirus 2, UniProt P0DTD1)

For `COc1ccccc1-c1nc2sc3c(c2c(=O)o1)CCC3`, the IC50 was greater than 100 µM (rep main protease; enzyme activity).
`CN(C)CCCCNC(=O)C[C@H](Cc1ccc(F)cc1)NC(=O)[C@@H](Cc1ccccc1Cl)NC(=O)[C@H](N)Cc1ccccc1C#N` gave an IC50 of 0.2 µM (rep main protease; enzyme activity, fluorescence).
With `CC(C)C[C@H](NC(=O)c1cc2c(F)ccc(F)c2[nH]1)C(=S)N[C@@H](C[C@@H]1CCNC1=O)C(=O)c1nc2cc(F)ccc2s1` the IC50 was 0.67 µM (rep main protease; enzyme activity).
With `CC[C@@H](C)[C@H](NC(=O)c1ccccc1[Se][Se]c1ccccc1C(=O)N[C@H](C(=O)OC)[C@H](C)CC)C(=O)OC` the IC50 was 1.26 µM (rep main protease; enzyme activity).
`COc1cc(-c2oc3cc(O)cc(O)c3c(=O)c2O[C@@H]2O[C@H](CO[C@@H]3O[C@@H](C)[C@H](O)[C@@H](O)[C@H]3O)[C@@H](O)[C@H](O)[C@H]2O)cc(O)c1O` gave an IC50 of 35.4 µM (rep main protease; enzyme activity; 3 min preincubation).
`CC(C)=CCc1c(O)ccc(C(=O)C2C(c3c(O)cc(O)c4c(=O)c(CC=C(C)C)c(-c5ccc(O)cc5O)oc34)C=C(C)CC2c2ccc(O)cc2O)c1O` (centres unmarked) gave an IC50 of 13.3 µM (rep methyltransferase; enzyme activity; pH 7.5).
For `O=C(O)c1cc(O)c(O)c(O)c1`, the IC50 was 6.18 ± 0.07 µM (rep main protease).
The IC50 of `CC1CC(c2ccc(-c3nnn[nH]3)cc2)=NN1c1ccc(C#N)c(Cl)c1` (centres unmarked) is reported as 6.31 µM (rep methyltransferase; enzyme activity).
For `CCN(CC)S(=O)(=O)c1ccc2nnn(OCc3ccc(C#N)cc3)c2c1`, the IC50 was greater than 100 µM (rep main protease; enzyme activity).
`O=C(O)CC[C@H](NC(=O)c1ccccc1[Se][Se]c1ccccc1C(=O)N[C@@H](CCC(=O)O)C(=O)O)C(=O)O` gave an IC50 of greater than 10 µM (rep main protease; enzyme activity).
`CN(C)CCCCNC(=O)C[C@H](Cc1ccccc1)NC(=O)[C@@H](Cc1ccc(Cl)cc1Cl)NC(=O)[C@H](N)Cc1ccccc1C#N` has an IC50 of 0.03 µM (rep main protease; enzyme activity, fluorescence).
`O=C1CC(c2ccccc2)Oc2cc(O[C@@H]3O[C@H](CO)[C@@H](O)[C@H](O)[C@H]3O)ccc21` (some centres unmarked) gave an IC50 of 70.6 ± 3.2 µM (rep nsp13 helicase; helicase unwinding activity).
For `OCC1OC(Oc2cc3c(O)cc(O)cc3[o+]c2-c2ccc(O)c(O)c2)C(O)C(O)C1O` (centres unmarked), the IC50 was 65.1 µM (rep main protease; enzyme activity).
`Nc1ncnc2c1ncn2[C@@H]1O[C@H](CSCc2ccc(-c3ccccc3)c(C(=O)O)c2)[C@@H](O)[C@H]1O` has an IC50 of 0.009 ± 0.0004 µM (Replicase polyprotein 1ab, nsp16 with nsp10 (rep, Severe acute respiratory syndrome coronavirus 2, UniProt P0DTD1); methyltransferase activity; 30 min, 30 °C, with: SAM 10 µM).
The IC50 of `O=C1CC(c2ccccc2)Oc2ccccc21` (centres unmarked) is reported as greater than 30 µM (rep nsp13 helicase; helicase ATPase activity; with: poly(A) ssRNA).
`O=C(c1cncc(Br)c1)N1CCN(C(c2ccccc2)c2ccccc2)CC1` gave an IC50 of 0.22 µM (rep main protease; enzyme activity).
`CSC[C@H]1O[C@@H](n2cnc3c(N)ncnc32)[C@H](O)[C@@H]1O` gave an IC50 of 17 ± 2 µM (Replicase polyprotein 1ab, nsp14 (rep, Severe acute respiratory syndrome coronavirus 2, UniProt P0DTD1); nsp14 methyltransferase activity, radiometric SPA; 20 min, with: 3H-SAM 250 nM, RNA 50 nM).
The IC50 of `Cc1ccccc1COn1nnc2ccc(S(=O)(=O)N(C)C)cc21` is reported as greater than 100 µM (rep main protease; enzyme activity).
The IC50 of `CCCCc1ccc(NC(=S)N/N=C/c2ccc(O)cc2)cc1` is reported as 34.2 µM (rep main protease; enzyme activity, FRET).
`O=C(/C=C/c1ccc(O)cc1)OC[C@H]1O[C@@H](Oc2cc(O)c3c(=O)cc(-c4ccc(O)cc4)oc3c2)[C@H](O)[C@@H](O)[C@@H]1O` has an IC50 of 225 ± 9.55 µM (rep main protease; enzyme activity; with: fluorogenic substrate).
`CC(C)(C)c1ccc(N(C(=O)C(F)F)C(C(=O)NCCc2cccc(F)c2)c2cccnc2)cc1` (centres unmarked) gave an IC50 of greater than 20 µM (rep main protease; enzyme activity).
The IC50 of `COC(=O)C1CCCN1C(=O)CC(O)C(N)Cc1ccccc1` (centres unmarked) is reported as 0.85 µM (rep papain-like protease; enzyme activity, FRET).
With `O=C(/C=C/c1ccc(O)c2oc(-c3ccc(O)c(O)c3)cc12)O[C@H](Cc1ccc(O)c(O)c1)C(=O)O` the IC50 was less than 100 µM (rep papain-like protease; enzyme activity, fluorescence).
`CN(C)S(=O)(=O)c1ccc2nnn(OCc3ccc(C(C)(C)C)cc3)c2c1` gave an IC50 of greater than 100 µM (rep main protease; enzyme activity).
With `Cc1oc2nc1C(=O)N[C@](C)(C(=O)NCCc1ccc(N(C)C)cc1)c1nc(c(C)o1)C(=O)N[C@](C)(C(=O)NCCc1ccc(N(C)C)cc1)c1nc(c(C)o1)C(=O)N[C@]2(C)C(=O)NCCc1ccc(N(C)C)cc1` the IC50 was 18.3 µM (rep main protease; enzyme activity).
`CCn1ccc(-c2cc(-c3cnn(CCOC)c3)cc([C@@H](C)NC(=O)c3cc(OCCN(C)C)ccc3C)c2)n1` has an IC50 of 0.165 µM (rep papain-like protease; enzyme activity, FRET).
`C[n+]1ccc(C(=O)NCc2ccccc2)c(O)c1` gave an IC50 of 2000 to 3000 µM (Replicase polyprotein 1ab, nsp12 with nsp7/nsp8 (rep, Severe acute respiratory syndrome coronavirus 2, UniProt P0DTD1); RNA synthesis; 30 min).
`Cc1ccc(OCCN(C)C)cc1C(=O)N[C@H](C)c1cc(-c2cnn(C)c2)cc(-c2ccn(C)n2)c1` gave an IC50 of 0.122 µM (rep papain-like protease; enzyme activity, FRET).
`CNC(=O)C[C@H](Cc1ccc(F)cc1)NC(=O)[C@@H](Cc1ccc(Cl)cc1Cl)NC(=O)[C@H](N)Cc1ccccc1C#N` has an IC50 of 0.3 µM (rep main protease; enzyme activity, fluorescence).
The IC50 of `Cc1ccccc1NC(=S)N/N=C/c1ccc(O)cc1` is reported as 28.8 µM (rep main protease; enzyme activity, FRET).
For `O=c1c2ccccc2sn1-c1ccccc1`, the IC50 was 0.19 ± 0.01 µM (rep main protease; enzyme activity; 5 min preincubation).
`N#Cc1ccccc1C[C@@H](N)C(=O)N[C@H](Cc1ccc(Cl)cc1Cl)C(=O)NCCc1ccc(F)cc1` gave an IC50 of 0.9 µM (rep main protease; enzyme activity, fluorescence).
`CCCCc1ccc(NC(=S)N/N=C/c2ccccc2O)cc1` has an IC50 of 4.37 µM (rep main protease; enzyme activity, FRET).
The IC50 of `CNc1nc(Nc2cccc3cnccc23)nc(N2CCN(C(=O)CCl)CC2)n1` is reported as 4.05 µM (rep papain-like protease; enzyme activity, fluorescence).
The IC50 of `CC[C@@H](C)[C@H](NC(=O)c1ccccc1[Se][Se]c1ccccc1C(=O)N[C@H](C(=O)O)[C@H](C)CC)C(=O)O` is reported as 5.14 µM (rep main protease; enzyme activity).
For `CN(C)CCCCNC(=O)C[C@H](Cc1ccc(F)cc1)NC(=O)[C@@H](Cc1ccc(Cl)cc1Cl)NC(=O)C(N)Cc1ccccc1C(N)=O` (some centres unmarked), the IC50 was 0.3 µM (rep main protease; enzyme activity, fluorescence).
The IC50 of `Cc1c(C(=O)N2c3ccccc3NC(=O)C2CC(=O)Nc2ccc(Cl)c(Cl)c2)oc2ccccc12` (centres unmarked) is reported as 18 µM (rep main protease; enzyme activity, FRET).
For `Cc1ccc(C(=O)NCc2ccc(C)c(C(=O)N[C@H](C)c3cccc4ccccc34)c2)cc1Br`, the IC50 was greater than 100 µM (rep papain-like protease; enzyme activity).
The IC50 of `CCC(C(=O)Nc1ccc(C)cc1)n1cccc2nc(SCc3ccc(F)cc3)nc1-2` (centres unmarked) is reported as 19.8 µM (rep papain-like protease; enzyme activity).
The IC50 of `CC(=O)N[C@@H](Cc1ccc(O)cc1)C(=O)N[C@@H](CC(=O)O)C(=O)N[C@H]1CCC[C@@H]1C(=O)N[C@@H](Cc1ccccc1)C(=O)N[C@@H](Cc1ccc(O)cc1)C(=O)N[C@H]1CCC[C@@H]1C(=O)N[C@@H](Cc1ccc(O)cc1)C(=O)N[C@H](C(=O)N[C@H](C(=O)N[C@@H](Cc1ccccc1)C(=O)N[C@@H](Cc1c[nH]cn1)C(=O)N[C@H](C(=O)N[C@@H](C)C(=O)N[C@H](C(N)=O)[C@@H](C)O)C(C)C)[C@@H](C)O)C(C)C` is reported as 0.64 µM (rep main protease; enzyme activity).
The IC50 of `C=CC(=O)N(c1ccc(C(C)(C)C)cc1)C(C(=O)NCCc1cccc(F)c1)c1cccnc1` (centres unmarked) is reported as 2.62 µM (rep main protease; enzyme activity).
For `Nc1nnc(SC2CC(=O)N(c3cccc4ccccc34)C2=O)s1` (centres unmarked), the IC50 was 0.84 ± 0.07 µM (rep main protease; enzyme activity; 20 min preincubation).
For `Cc1cccc(Cl)c1-n1sc(=O)n(CC2CC2)c1=O`, the IC50 was 4.4 ± 0.3 µM (Replicase polyprotein 1ab, nsp3 macrodomain (rep, Severe acute respiratory syndrome coronavirus 2, UniProt P0DTD1); ADP-ribose binding, fluorescence polarization; Mac1 domain, SARS-CoV-2).
`O=C(Oc1cncc(Cl)c1)c1cc2ccccc2[nH]1` has an IC50 of 0.0247 µM (rep main protease; enzyme activity).
For `CCOC(=O)[C@@H](NC(=O)c1ccccc1[Se][Se]c1ccccc1C(=O)N[C@H](C(=O)OCC)C(C)C)C(C)C`, the IC50 was 1.39 µM (rep main protease; enzyme activity).
`O=C1C[C@H](c2ccc(O)cc2)c2c(cc(O)c3c2O[C@H](c2ccc(O)c(O)c2)[C@H](OC(=O)c2cc(O)c(O)c(O)c2)C3)O1` has an IC50 of 41.2 µM (rep main protease; enzyme activity).
The IC50 of `CC(=O)Oc1ccc(/C=C/C(=O)O[C@@H]2Cc3c(O)cc(O)cc3O[C@@H]2c2ccc(O)c(O)c2)cc1` is reported as 77.5 µM (rep main protease; enzyme activity, FRET).

Some of these lines once more:
The IC50 of `Cc1ccccc1COn1nnc2ccc(S(=O)(=O)N(C)C)cc21` is reported as greater than 100 µM (rep main protease; enzyme activity).
The IC50 of `CCCCc1ccc(NC(=S)N/N=C/c2ccc(O)cc2)cc1` is reported as 34.2 µM (rep main protease; enzyme activity, FRET).
`O=C(/C=C/c1ccc(O)cc1)OC[C@H]1O[C@@H](Oc2cc(O)c3c(=O)cc(-c4ccc(O)cc4)oc3c2)[C@H](O)[C@@H](O)[C@@H]1O` has an IC50 of 225 ± 9.55 µM (rep main protease; enzyme activity; with: fluorogenic substrate).
